{"data": "Values quoted from earlier work, collected from citations in different studies", "note": "Compare with care: the assays were run in different laboratories."}
{"SMILES": "CC(C)NC(=O)COc1cccc(-c2nc(Nc3ccc4[nH]ncc4c3)c3ccccc3n2)c1", "test system": "healthy human subjects", "setting": "dose not given, together with: rifampin (strong CYP3A4 inducer)", "measurement": "AUC decrease", "result": "72%"}
{"SMILES": "OC(Cn1cncn1)(Cn1cncn1)c1ccc(F)cc1F", "test system": "human", "setting": "oral, 100 mg single dose", "measurement": "AUC", "result": "65.7 µg·h/mL"}
{"SMILES": "COc1cc2nccc(Oc3ccc(NC(=O)C4(C(=O)Nc5ccc(F)cc5)CC4)cc3)c2cc1OC", "test system": "human", "setting": "dose not given, high-fat breakfast", "scale": "baseline: fasted", "measurement": "AUC increase", "result": "57%"}
{"SMILES": "N[C@@H]1c2cccnc2[C@H](OC(=O)N2CCC(n3c(=O)[nH]c4ncccc43)CC2)CC[C@H]1c1cccc(F)c1F", "test system": "human, severe hepatic impairment", "setting": "oral, 75 mg", "scale": "baseline: normal hepatic function", "measurement": "AUC ratio", "result": "2 fold"}
{"SMILES": "Cn1c(=O)oc2ccc(-c3ccc(C[C@@H](C#N)NC(=O)[C@@H]4CNCCCO4)cc3)cc21", "test system": "human", "setting": "dose not given, together with: moderate or strong CYP3A4/P-gp inhibitor", "measurement": "AUC and Cmax", "result": "increased"}
{"SMILES": "O=C(O)C[C@H](O)C[C@H](O)/C=C/c1c(C2CC2)nc2ccccc2c1-c1ccc(F)cc1", "test system": "healthy human volunteers", "setting": "dose not given, together with: rifampicin", "scale": "baseline: without rifampicin", "measurement": "AUC increase", "result": "5.7 fold"}
{"SMILES": "C[C@@H](Oc1ccc(S(C)(=O)=O)cc1C(=O)N1C[C@@H]2C[C@]2(c2cc(C(F)(F)F)on2)C1)C(F)(F)F", "test system": "human", "setting": "oral, dose not given, tablet", "scale": "baseline: fasted", "measurement": "AUC increase with food", "result": "25%"}
{"SMILES": "C#Cc1cccc(Nc2ncnc3cc(OCCOC)c(OCCOC)cc23)c1", "test system": "human", "setting": "intravenous, 150 mg", "measurement": "AUC", "result": "41.3 µg·h/mL"}
{"SMILES": "O=C(c1cc(Cc2n[nH]c(=O)c3ccccc23)ccc1F)N1CCN(C(=O)C2CC2)CC1", "test system": "human", "setting": "oral, dose not given, tablet", "measurement": "AUC at steady state", "result": "58 µg·h/mL"}
{"SMILES": "OC(Cn1cncn1)(Cn1cncn1)c1ccc(F)cc1F", "test": "perpetrator, measured: fluvastatin", "test system": "human", "setting": "dose not given", "scale": "baseline: without compound", "measurement": "AUC increase", "result": "84%"}
{"SMILES": "COc1ccc2[nH]c([S+]([O-])Cc3ncc(C)c(OC)c3C)nc2c1 (stereo not drawn)", "test system": "human post-RYGB patients", "setting": "oral tablet, 20 mg once daily, day 6, 6 months after surgery", "measurement": "AUC", "result": "0.667 µg·h/mL"}
{"SMILES": "C1=C/COCc2cc(ccc2OCCN2CCCC2)Nc2nccc(n2)-c2cccc(c2)COC/1", "test system": "human", "setting": "dose not given, together with: rifampicin", "scale": "baseline: without rifampicin", "measurement": "AUC decrease", "result": "90%"}
